Published values collected from several papers.
Compare with care: the assays were run in different laboratories. ± marks the error that the study gave.

For `N=C(N)NCCC[C@@H]1NC(=O)[C@H](CCCCNC(=O)CNC(=O)CNC(=O)CNC(=O)CC[C@H](NC(=O)CCOCCOCCOCCOCCNC(=O)CC[C@H](NC(=O)CN2CCN(CC(=O)O)CCN(CC(=O)O)CCN(CC(=O)O)CC2)C(=O)NCCOCCOCCOCCOCCC(=O)N[C@@H](CCC(=O)NCC(=O)NCC(=O)NCC(=O)NCCCC[C@@H]2NC(=O)[C@@H](Cc3ccccc3)NC(=O)[C@H](CC(=O)O)NC(=O)CNC(=O)[C@H](CCCNC(=N)N)NC2=O)C(=O)NCC(=O)NCC(=O)NCC(=O)NCCCC[C@@H]2NC(=O)[C@@H](Cc3ccccc3)NC(=O)[C@H](CC(=O)O)NC(=O)CNC(=O)[C@H](CCCNC(=N)N)NC2=O)C(=O)NCC(=O)NCC(=O)NCC(=O)NCCCC[C@@H]2NC(=O)[C@@H](Cc3ccccc3)NC(=O)[C@H](CC(=O)O)NC(=O)CNC(=O)[C@H](CCCNC(=N)N)NC2=O)NC(=O)[C@@H](Cc2ccccc2)NC(=O)[C@H](CC(=O)O)NC(=O)CNC1=O` [indium-111 labelled], the tissue uptake was 5.18 ± 1.39 %ID/g (female athymic nude mice, intestine; intravenous, 3 µCi, 4 h, U-87 MG glioma xenograft).
The MIC of `C[N+]1=C2C(c3ccc(Cl)cc3)=[N+]([O-])c3ccccc3N2CCC1` is reported as 1 µg/mL (Parvimonas micra; ATCC 3870).
The MIC of `CN[C@@H]1[C@H](O)[C@H](NC)[C@H]2O[C@]3(O)[C@H](O[C@@H]2[C@H]1O)O[C@H](C)C[C@@]3(O)CNCc1ccc(F)cc1` is reported as 1.6 µg/mL (Streptococcus pyogenes; ATCC 700294).
With `c1ccc(CCNC2CCCc3c2[nH]c2ccc(C4CCCCC4)cc32)cc1` (stereo not drawn) the MIC was 1 µg/mL (Streptococcus pyogenes; broth microdilution; serotype M1T1, THY medium).
`COc1ccc(C2=[N+]([O-])c3ccccc3N3CC(C)(C)CN=C23)cc1` has an MIC of 0.25 µg/mL (Porphyromonas sp.).
`N=C(N)NCCC[C@@H]1NC(=O)[C@H](CCCCNC(=O)CCOCCOCCOCCOCCNC(=O)CC[C@H](NC(=O)CCOCCOCCOCCOCCNC(=O)CC[C@H](NC(=O)CN2CCN(CC(=O)O)CCN(CC(=O)O)CCN(CC(=O)O)CC2)C(=O)NCCOCCOCCOCCOCCC(=O)N[C@@H](CCC(=O)NCCOCCOCCOCCOCCC(=O)NCCCC[C@@H]2NC(=O)[C@@H](Cc3ccccc3)NC(=O)[C@H](CC(=O)O)NC(=O)CNC(=O)[C@H](CCCNC(=N)N)NC2=O)C(=O)NCCOCCOCCOCCOCCC(=O)NCCCC[C@@H]2NC(=O)[C@@H](Cc3ccccc3)NC(=O)[C@H](CC(=O)O)NC(=O)CNC(=O)[C@H](CCCNC(=N)N)NC2=O)C(=O)NCCOCCOCCOCCOCCC(=O)NCCCC[C@@H]2NC(=O)[C@@H](Cc3ccccc3)NC(=O)[C@H](CC(=O)O)NC(=O)CNC(=O)[C@H](CCCNC(=N)N)NC2=O)NC(=O)[C@@H](Cc2ccccc2)NC(=O)[C@H](CC(=O)O)NC(=O)CNC1=O` [indium-111 labelled] gave a tissue uptake of 1.23 ± 0.27 %ID/g (female athymic nude mice, liver; intravenous, 3 µCi, 72 h, U-87 MG glioma xenograft).
The MIC of `CC[C@H](C)[C@H](NC(=O)[C@@H](NC(=O)CN)C(C)C)C(=O)N[C@@H](Cc1ccccc1)C(=O)N[C@@H](CC(N)=O)C(=O)N[C@@H](C)C(=O)N[C@@H](CC(C)C)C(=O)N[C@@H](CCCCN)C(=O)NCC(=O)N[C@H](C(=O)N[C@@H](C)C(=O)N[C@@H](CCCCN)C(=O)N[C@H](C(=O)N[C@H](C(=O)N[C@@H](C)C(=O)N[C@@H](C)C(=O)N[C@@H](CCC(N)=O)C(=O)N[C@@H](CC(C)C)C(=O)N[C@@H](CC(C)C)C(=O)N[C@@H](CCCCN)C(=O)N[C@@H](CCCCN)C(=O)N[C@@H](C)C(=O)N[C@@H](CCCNC(=N)N)C(=O)N[C@H]1CSSC[C@@H](C(=O)O)NC(=O)[C@H](CO)NC(=O)[C@H](CCCCN)NC(=O)[C@H](CC(=O)O)NC(=O)[C@H](CC(C)C)NC(=O)[C@H](CCCCN)NC1=O)C(C)C)[C@@H](C)O)C(C)C` is reported as 2 µM (Staphylococcus aureus; MRSA NCTC 12493, Mueller-Hinton broth; added: ZnCl2 8 mM).
The MIC of `CO[C@H]1/C=C/O[C@@]2(C)Oc3c(C)c(O)c4c(c3C2=O)C2=NC3(CCN(CC(C)C)CC3)NC2=C(NC(=O)/C(C)=C\C=C\[C@H](C)[C@H](O)[C@@H](C)[C@@H](O)[C@@H](C)[C@H](OC(=O)c2ccccc2F)[C@@H]1C)C4=O` is reported as 0.058 µM (Mycobacteroides abscessus; ATCC 19977 arr deletion; 90% growth inhibition).
The MIC of `OB(O)c1cnn(-c2cc(Cl)ncn2)c1` is reported as 1 µg/mL (Enterobacter cloacae; bacterial growth; AmpC-overproducing clinical isolate; cefotaxime alone).
For `CC[C@H](C)[C@H](NC(=O)[C@@H](NC(=O)[C@H](CC(=O)O)NC(C)=O)[C@@H](C)O)C(=O)N[C@@H](CCCNC(=N)N)C(=O)N[C@@H](CC(C)C)C(=O)N[C@@H](CC(C)C)C(=O)N[C@@H](Cc1ccccc1)C(=O)N[C@@H](CCC(N)=O)C(=O)N[C@@H](CC(C)C)C(=O)N[C@@H](CCSC)C(=O)N[C@@H](CCCNC(=N)N)C(=O)N1CCC[C@H]1C(=O)N1CCC[C@H]1C(=O)N[C@@H](CC(N)=O)C(=O)N[C@@H](CCSC)C(=O)N[C@H](C(=O)N1CCC[C@H]1C(=O)N[C@@H](C)C(=O)N[C@H](C(=O)N[C@@H](CC(N)=O)C(=O)N[C@@H](C)C(N)=O)C(C)C)[C@@H](C)O`, “α4β7− CCR9+ cells” read 0% (item: HA-23 tetramer; antigen-experienced tetramer+ CD4 T cells, healthy adults, HLA-DRB1*0101; dose not given).
The tracer uptake of `CN[C@](C)(C[18F])C(=O)O` is reported as 1.6 %ID/g (DU-145 tumour model; host not given, bone; 2 h, tumour-bearing).
For `CN1C(=O)[C@@H]2NC(=O)[C@@H]3NC(=O)[C@@H](c4ccc(O)cc4)NC(=O)[C@H](NC(=O)C(N)c4ccc(O)cc4)Cc4c[nH]c5cc(ccc45)-c4cc3cc(c4O)Oc3ccc(cc3)C[C@H]1C(=O)N[C@@H](C(=O)O)c1ccc(O)c(c1)Oc1ccc2cc1` (stereo partly drawn), the MIC was 8 to 16 µg/mL (Enterococcus faecium; brain heart infusion medium).
With `CCCCCCCCCCCCCCCCCCCCCCSCC1OC(OC2C(N)CC(N)C(OC3OC(CN)C(O)CC3N)C2O)C(O)C(N)C1O` (stereo not drawn) the MIC was over 150 µg/mL (Shigella; clinical isolate).
`CN1C(=O)[C@@H]2NC(=O)[C@@H]3NC(=O)[C@@H](c4ccc(O)cc4)NC(=O)[C@H](NC(=O)C(NCc4cccc(O)c4O)c4ccc(O)cc4)Cc4c[nH]c5cc(ccc45)-c4cc3cc(c4O)Oc3ccc(cc3)C[C@H]1C(=O)N[C@@H](C(=O)O)c1ccc(O)c(c1)Oc1ccc2cc1` (stereo partly drawn) gave an MIC of 16 to 32 µg/mL (Enterococcus faecium; brain heart infusion medium).
The MIC of `CN[C@@H]1[C@H](O)[C@H](NC)[C@H]2O[C@]3(O)[C@H](O[C@@H]2[C@H]1O)O[C@H](C)C[C@@]3(O)CNCCC1CCOCC1` is reported as 8 µg/mL (Mycobacteroides abscessus; ATCC 19977 ∆whiB7; 120 h).

For quick reference, copied from above:
The MIC of `OB(O)c1cnn(-c2cc(Cl)ncn2)c1` is reported as 1 µg/mL (Enterobacter cloacae; bacterial growth; AmpC-overproducing clinical isolate; cefotaxime alone).
For `N=C(N)NCCC[C@@H]1NC(=O)[C@H](CCCCNC(=O)CNC(=O)CNC(=O)CNC(=O)CC[C@H](NC(=O)CCOCCOCCOCCOCCNC(=O)CC[C@H](NC(=O)CN2CCN(CC(=O)O)CCN(CC(=O)O)CCN(CC(=O)O)CC2)C(=O)NCCOCCOCCOCCOCCC(=O)N[C@@H](CCC(=O)NCC(=O)NCC(=O)NCC(=O)NCCCC[C@@H]2NC(=O)[C@@H](Cc3ccccc3)NC(=O)[C@H](CC(=O)O)NC(=O)CNC(=O)[C@H](CCCNC(=N)N)NC2=O)C(=O)NCC(=O)NCC(=O)NCC(=O)NCCCC[C@@H]2NC(=O)[C@@H](Cc3ccccc3)NC(=O)[C@H](CC(=O)O)NC(=O)CNC(=O)[C@H](CCCNC(=N)N)NC2=O)C(=O)NCC(=O)NCC(=O)NCC(=O)NCCCC[C@@H]2NC(=O)[C@@H](Cc3ccccc3)NC(=O)[C@H](CC(=O)O)NC(=O)CNC(=O)[C@H](CCCNC(=N)N)NC2=O)NC(=O)[C@@H](Cc2ccccc2)NC(=O)[C@H](CC(=O)O)NC(=O)CNC1=O` [indium-111 labelled], the tissue uptake was 5.18 ± 1.39 %ID/g (female athymic nude mice, intestine; intravenous, 3 µCi, 4 h, U-87 MG glioma xenograft).
